Measurements of several laboratories.
Lines come from different studies, so protocols differ. Values joined by “and” are separate records of one study, mostly repeats; a detail may differ. ± marks the error that the study gave.
TARDBP aggregated: TAR DNA-binding protein 43, aggregated (TARDBP, Homo sapiens, UniProt Q13148)
CASP8: Caspase-8 (CASP8, Homo sapiens, UniProt Q14790)
CASP10: Caspase-10 (CASP10, Homo sapiens, UniProt Q92851)

Compound	target	assay	test system	setting	how to read	quantity	value
COc1ccc2c(c1)OC1=C(/C=C/c3sc4ccccc4[n+]3C)CCCC1=C2	Cytochrome P450 2J2 (CYP2J2, Homo sapiens, UniProt P51589)	O-demethylation, substrate	–	pH 7.4, 37 °C	–	Vmax	22.9 ± 0.33 nmol/min/nmol P450
CCCCCC(O)/C=C/C=O (stereo not shown)	Retinal dehydrogenase 2 (ALDH1A2, Homo sapiens, UniProt O94788)	acylphosphate-ATP probe SILAC-ABPP	ZAK-transfected HEK293T	100 µM, with: acylphosphate-ATP probe	baseline: DMSO over compound-treated	probe labelling ratio	0.56
O=C1c2sc(-c3ccc(N4CCC(CO)CC4)nc3F)nc2CCN1c1cccnc1	TARDBP aggregated	radioligand binding	control brain sarkosyl-insoluble extract	6.91 nM	–	specific binding	-0.006 nM
CC[C@H](NC(=O)[C@H](CC(C)C)NC(C)=O)C(=O)N[C@@H](CCC1CCCCC1)C(=O)N[C@@H](CC(=O)O)C(=O)COC(=O)c1c(C)cccc1C	CASP8	enzyme activity, inhibitor	–	–	–	kinact/KI	2.35e+06 M⁻¹ s⁻¹
CC[C@H](C)[C@H](NC(=O)[C@@H](NC(=O)[C@@H](NC(=O)[C@@H](NC(=O)[C@H](CCCCN)NC(=O)[C@H](CCC(=O)O)NC(=O)[C@H](C)N)C(C)C)C(C)C)C(C)C)C(=O)N[C@H](C(=O)N[C@@H](CCCCN)C(N)=O)[C@@H](C)O	Microtubule-associated protein tau (MAPT, Homo sapiens, UniProt P10636)	ThT fluorescence	–	0.1-fold over protein, 30 h, with: tau 10 µM, heparin	baseline: untreated	fibrillization plateau fluorescence	77 ± 12%
COC(=O)[C@@]1(C)C=C(C(=O)Nc2cccc(C(=O)Nc3ccc(Nc4nccc(-c5cccnc5)n4)c(C)c3)c2)C(=O)CC1	human PDGFR	33PanQinase	–	1 µM	baseline: control	remaining activity	88%
CC(=O)N[C@@H](CO)C(=O)N[C@@H](Cc1ccccc1)C(=O)N[C@@H](C)C(=O)N[C@@H](CC(=O)O)C(=O)COC(=O)c1c(C)cccc1C	CASP8	enzyme activity, inhibitor	–	–	–	kinact/KI	502000 M⁻¹ s⁻¹
Cc1cc(C)cc(COc2cc3c(cc2OCc2cc(C)cc(C)c2)C2CC(O)(Cc4cn(CCOCCOCCNC(=O)CCCCC5SCC6NC(=O)NC65)nn4)CC(C)N2CC3)c1 (stereo not shown)	ATP synthase peripheral stalk subunit b, mitochondrial (Homo sapiens, UniProt P24539)	biotinylated probe pull-down, item: ATP5PB	–	10 µM probe	baseline: heavy over light	SILAC ratio	1.83
C#CCOC(=O)[C@@]1(C)C=C(C(=O)OC(C)(C)C)C(=O)CC1	Mitogen-activated protein kinase 8 (MAPK8, Homo sapiens, UniProt P45983)	enzyme activity, D-SENSOR	–	0.02032 µM, mean of replicates	–	normalized kinase activity	1.04
CC[C@H](C)[C@@H]1NC(=O)[C@H](Cc2ccccc2)NC(=O)[C@H](CCC(=O)O)NC(=O)[C@H](CCCNC(=N)N)NC(=O)CNC(=O)[C@@H](NC(=O)[C@H](CC(C)C)NC(=O)[C@H](CCCNC(=N)N)NC(=O)[C@@H](NC(=O)CNC(=O)[C@H](Cc2ccc(O)cc2)NC(=O)[C@@H]2CCCN2C(=O)[C@H](C)NC(=O)[C@H](C)NC(=O)[C@@H](N)CCCNC(=N)N)C(C)C)CSSC[C@@H]2NC(=O)[C@@H](NC(=O)[C@H](CO)NC(=O)[C@H](CO)NC(=O)[C@H](CO)NC(=O)[C@H](CC(C)C)NC(=O)CNC(=O)[C@H](C)NC(=O)[C@H](CC(C)C)NC(=O)[C@@H](NC(=O)[C@@H](N)CC(=O)O)C(C)C)CSSC[C@H](NC(=O)CNC(=O)[C@H](Cc3c[nH]c4ccccc34)NC(=O)[C@H](CCCCN)NC2=O)C(=O)N[C@@H](CO)C(=O)N[C@@H](CCCCN)C(=O)N[C@@H](CO)C(=O)N[C@@H](CCC(=O)O)C(=O)N[C@@H]([C@@H](C)CC)C(=O)N[C@@H](CO)C(=O)N[C@@H](CO)C(=O)N[C@@H](CC(C)C)C(=O)N[C@H](C(=O)O)CSSC[C@@H](C(=O)NCC(=O)NCC(=O)N[C@@H](CO)C(=O)N[C@@H](CCCNC(=N)N)C(=O)N[C@@H](Cc2c[nH]c3ccccc23)C(=O)O)NC(=O)[C@H]([C@@H](C)O)NC(=O)[C@H](Cc2ccccc2)NC(=O)[C@H]([C@@H](C)CC)NC(=O)[C@H](C(C)C)NC(=O)[C@H](C)NC(=O)[C@H](CCCNC(=N)N)NC1=O	Relaxin-3 receptor 2 (RXFP4, Homo sapiens, UniProt Q8TDU9, S101A)	–	–	S101A mutant	baseline: wild type	change in Emax	-63.5% and -71% and -63.6%
CN(C)Cc1ccc(-c2coc3cc(O)ccc3c2=O)cc1	3 beta-hydroxysteroid dehydrogenase/Delta 5-->4-isomerase type 1 (HSD3B1, Homo sapiens, UniProt P14060)	[3H]-DHEA conversion	LNCaP	0.1 µM, normalized to protein, unit not given	baseline: vehicle	DHEA metabolism	0
CC(C)[C@@H]1NC(=O)[C@H](Cc2ccccc2)NC(=O)CSC[C@@H](C(N)=O)NC(=O)[C@H](CCC(=O)O)NC(=O)[C@H](CO)NC(=O)[C@H](Cc2c[nH]c3cccc(Cl)c23)NC(=O)[C@H](C2CCCCC2)NC(=O)[C@H](C(C)C)NC(=O)[C@H](Cc2ccc(O)cc2)NC(=O)[C@H](CC(=O)O)NC(=O)[C@H](Cc2c[nH]c3ccccc23)NC(=O)[C@H](Cc2ccc(N)nc2)NC(=O)[C@H](Cc2c[nH]c3ccc(Cl)cc23)NC(=O)[C@H](CCC(=O)O)NC1=O	Interleukin-1 receptor-like 2 (IL1RL2, Homo sapiens, UniProt Q9HB29)	reporter gene (SEAP), inhibitor, HEK-Blue IL-36R reporter	HEK-Blue IL-36R cells	0.046 µM, 6 h, with: IL-36β 10 ng/mL	–	remaining activity	102%
Cc1cn(CC(=O)N(CC(=O)N[C@H]2CCC[C@@H]2N(CC(=O)N[C@H]2COC[C@@H]2N(CC(=O)N[C@H]2COC[C@@H]2N(CC(=O)N[C@H]2COC[C@@H]2N(CC(=O)NCCOCCOCC(N)=O)C(=O)Cn2cnc3c(N)ncnc32)C(=O)Cn2cc(C)c(=O)[nH]c2=O)C(=O)Cn2cnc3c(N)ncnc32)C(=O)Cn2cnc3c(=O)[nH]c(N)nc32)[C@H]2CCC[C@@H]2NC(=O)CN(C(=O)Cn2cnc3c(=O)[nH]c(N)nc32)[C@H]2CCC[C@@H]2NC(=O)CN(C(=O)Cn2cc(C)c(=O)[nH]c2=O)[C@H]2COC[C@@H]2NC(=O)CN(C(=O)Cn2cnc3c(N)ncnc32)[C@H]2COC[C@@H]2NC(=O)CN(C(=O)Cn2cnc3c(=O)[nH]c(N)nc32)[C@H]2COC[C@@H]2N)c(=O)[nH]c1=O	complementary DNA	duplex formation, UV melting curve fit	PBS	1 µM, 298 K	–	ΔG	-20.9 ± 0.3 kcal/mol
O=C1c2sc(-c3ccc(N4CCC(F)C4)nc3F)nc2CCN1c1cccnc1 (stereo not shown)	TARDBP aggregated	radioligand binding	human, FTLD-TDP type B extract	with: radioligand 37.19 nM	–	specific binding	3.65 nM and 3.64 nM
COc1ccc(C(=O)c2c(C(=O)NCCCN(C)C)oc3ccc(Cl)cc3c2=O)cc1OC	Growth hormone secretagogue receptor type 1 (GHSR, Homo sapiens, UniProt Q92847)	Gαq dissociation, TRUPATH BRET	HEK293T	shared parameter fit	–	Hill slope	0.66
C=CC(=O)N1CCCC(n2c(=O)c3ncccc3n(Cc3ccc(Oc4ccccc4)cc3)c2=O)C1 (stereo not shown)	Secernin-1 (SCRN1, Homo sapiens, UniProt Q12765)	thermal proteome profiling, item: SCRN1	–	unit not given	baseline: vehicle	melting temperature shift	-4.71
CC(=O)N[C@@H](Cc1ccc(O)cc1)C(=O)N1CSC[C@H]1C(=O)N[C@@H](C)C(=O)N[C@@H](CC(=O)O)C(=O)COC(=O)c1c(C)cccc1C	CASP10	enzyme activity, inhibitor	–	–	–	kinact/KI	6600 M⁻¹ s⁻¹
CC[C@H](C)[C@H](NC(=O)[C@@H](NC(=O)[C@@H](NC(=O)[C@@H](NC(=O)[C@@H](N)CCCCN)C(C)C)C(C)C)C(C)C)C(=O)N[C@H](C(N)=O)[C@@H](C)O	Microtubule-associated protein tau, PHF6* peptide (MAPT, Homo sapiens, UniProt P10636)	fibril formation, ThT fluorescence	–	1-fold of peptide, pH 7.4, with: Ac-PHF6* 25 µM, heparin	baseline: untreated	ThT fluorescence	82 ± 1%
N[C@H]1CC[C@H](Nc2nccc(-c3cccnc3Oc3ccc(NC(=O)NC4CC4)c4ccccc34)n2)CC1	Fatty acid CoA ligase Acsl3 (ACSL3, Homo sapiens, UniProt O95573)	kinobead competition pulldown	HEK293/HCT116 lysate mixture	10 µM, 1 h, 4 °C	lower = stronger competition	log2 LFQ intensity	21.6 and 19.3 and 19.7 and 22.5
C[Si](C)(C)C[C@H](CN)CC(=O)O	Cannabinoid receptor 1 (CNR1, Homo sapiens, UniProt P21554)	ligand displacement, radioligand	–	250 µM	–	inhibition	10%
CCCCCCCO[C@H]1O[C@H](CO)[C@@H](O)[C@H](O)[C@@H]1O	Type 1 fimbrin D-mannose specific adhesin, lectin domain (fimH, Escherichia coli K-12, UniProt P08191)	binding, isothermal titration calorimetry	–	37 °C, global fit of two titrations	–	-TΔS	3.99 kcal/mol
CCCC[C@H](NC(C)=O)C(=O)N[C@@H](CCCC(=O)O)C(=O)N1CCC[C@H]1C(=O)N[C@@H](CC(=O)O)C(=O)COC(=O)c1c(C)cccc1C	CASP10	enzyme activity, inhibitor	–	–	–	kinact/KI	322000 M⁻¹ s⁻¹
CCCCCC=CC=C1C(=O)C=CC1CC=CCCCC(=O)O (stereo not shown)	Bleomycin hydrolase (Homo sapiens, UniProt Q13867)	competitive isoTOP-ABPP	Ramos soluble proteome	100 µM, 60 min, with: iodoacetamide probe	baseline: DMSO over compound-treated, higher = stronger cysteine blockade	isoTOP-ABPP competition ratio	10
CC(=O)N[C@@H](CC(C)C)C(=O)N[C@@H](CCC(=O)O)C(=O)N[C@@H](COCc1ccccc1)C(=O)N[C@@H](CC(=O)O)C(=O)COC(=O)c1c(C)cccc1C	CASP10	enzyme activity, inhibitor	–	–	–	kinact/KI	404000 M⁻¹ s⁻¹
C=C1C(=O)C2(C(=O)N3CCCC3)CC(=O)CC1C2 (racemic)	Tyrosine-protein phosphatase non-receptor type 11 (PTPN11, Homo sapiens, UniProt Q06124)	enzyme activity, covalent inhibitor	–	with: pNPP substrate	–	kinact/KI	13.4 M⁻¹ s⁻¹
CC(=O)N[C@@H](Cc1c[nH]c2ccccc12)C(=O)N[C@@H](CCCCN)C(=O)N[C@@H](CCC(=O)O)C(=O)N[C@@H](CC(=O)O)C(=O)COC(=O)c1c(C)cccc1C	CASP8	enzyme activity, inhibitor	–	–	–	kinact/KI	43000 M⁻¹ s⁻¹
C[n+]1cn([C@@H]2O[C@H](COP(=O)([O-])OP(=O)(O)CP(=O)(O)O)[C@@H](O)[C@H]2O)c2nc(N)nc(O)c21	m7GpppX diphosphatase (DCPS, Homo sapiens, UniProt Q96C86)	substrate, HPLC	–	concentration not given, 15 min	–	hydrolysis	0%
Cc1ccc(C(=O)Nc2ccc(CN3CCN(C)CC3)c(C(F)(F)F)c2)cc1C#Cc1cnc2cccnn12	Serine/threonine-protein kinase 32B (STK32B, Homo sapiens, UniProt Q9NY57)	target engagement, NanoBRET	human cells	–	–	upper asymptote	1360

For quick reference, copied from above:
Compound	target	assay	test system	setting	how to read	quantity	value
CC(C)[C@@H]1NC(=O)[C@H](Cc2ccccc2)NC(=O)CSC[C@@H](C(N)=O)NC(=O)[C@H](CCC(=O)O)NC(=O)[C@H](CO)NC(=O)[C@H](Cc2c[nH]c3cccc(Cl)c23)NC(=O)[C@H](C2CCCCC2)NC(=O)[C@H](C(C)C)NC(=O)[C@H](Cc2ccc(O)cc2)NC(=O)[C@H](CC(=O)O)NC(=O)[C@H](Cc2c[nH]c3ccccc23)NC(=O)[C@H](Cc2ccc(N)nc2)NC(=O)[C@H](Cc2c[nH]c3ccc(Cl)cc23)NC(=O)[C@H](CCC(=O)O)NC1=O	Interleukin-1 receptor-like 2 (IL1RL2, Homo sapiens, UniProt Q9HB29)	reporter gene (SEAP), inhibitor, HEK-Blue IL-36R reporter	HEK-Blue IL-36R cells	0.046 µM, 6 h, with: IL-36β 10 ng/mL	–	remaining activity	102%
Cc1cn(CC(=O)N(CC(=O)N[C@H]2CCC[C@@H]2N(CC(=O)N[C@H]2COC[C@@H]2N(CC(=O)N[C@H]2COC[C@@H]2N(CC(=O)N[C@H]2COC[C@@H]2N(CC(=O)NCCOCCOCC(N)=O)C(=O)Cn2cnc3c(N)ncnc32)C(=O)Cn2cc(C)c(=O)[nH]c2=O)C(=O)Cn2cnc3c(N)ncnc32)C(=O)Cn2cnc3c(=O)[nH]c(N)nc32)[C@H]2CCC[C@@H]2NC(=O)CN(C(=O)Cn2cnc3c(=O)[nH]c(N)nc32)[C@H]2CCC[C@@H]2NC(=O)CN(C(=O)Cn2cc(C)c(=O)[nH]c2=O)[C@H]2COC[C@@H]2NC(=O)CN(C(=O)Cn2cnc3c(N)ncnc32)[C@H]2COC[C@@H]2NC(=O)CN(C(=O)Cn2cnc3c(=O)[nH]c(N)nc32)[C@H]2COC[C@@H]2N)c(=O)[nH]c1=O	complementary DNA	duplex formation, UV melting curve fit	PBS	1 µM, 298 K	–	ΔG	-20.9 ± 0.3 kcal/mol
O=C1c2sc(-c3ccc(N4CCC(F)C4)nc3F)nc2CCN1c1cccnc1 (stereo not shown)	TARDBP aggregated	radioligand binding	human, FTLD-TDP type B extract	with: radioligand 37.19 nM	–	specific binding	3.65 nM and 3.64 nM
COc1ccc(C(=O)c2c(C(=O)NCCCN(C)C)oc3ccc(Cl)cc3c2=O)cc1OC	Growth hormone secretagogue receptor type 1 (GHSR, Homo sapiens, UniProt Q92847)	Gαq dissociation, TRUPATH BRET	HEK293T	shared parameter fit	–	Hill slope	0.66
